# Assay results gathered from unrelated publications.
# Lines come from different studies, so protocols differ. ± gives the spread as reported.
# HTR6: 5-hydroxytryptamine receptor 6 (HTR6, Homo sapiens, UniProt P50406)
# Chain of UniProt P50406 (whole entry, looked up): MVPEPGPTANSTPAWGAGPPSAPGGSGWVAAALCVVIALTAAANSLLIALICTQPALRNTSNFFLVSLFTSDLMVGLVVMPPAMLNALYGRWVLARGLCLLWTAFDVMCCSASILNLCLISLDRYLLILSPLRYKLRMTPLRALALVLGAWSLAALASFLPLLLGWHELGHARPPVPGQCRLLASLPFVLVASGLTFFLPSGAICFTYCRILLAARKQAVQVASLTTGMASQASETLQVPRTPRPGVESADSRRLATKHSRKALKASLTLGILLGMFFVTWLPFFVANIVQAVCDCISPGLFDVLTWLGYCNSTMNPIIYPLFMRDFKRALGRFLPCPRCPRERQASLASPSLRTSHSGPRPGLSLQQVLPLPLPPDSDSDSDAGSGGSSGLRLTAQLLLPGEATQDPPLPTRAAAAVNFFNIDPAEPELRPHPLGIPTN
# cathepsin L: cathepsin L (Capra hircus, UniProt A0A452FFI6)
# CHRM2: Muscarinic acetylcholine receptor M2 (CHRM2, Homo sapiens, UniProt P08172)
# Chain of UniProt P08172 (whole entry, looked up): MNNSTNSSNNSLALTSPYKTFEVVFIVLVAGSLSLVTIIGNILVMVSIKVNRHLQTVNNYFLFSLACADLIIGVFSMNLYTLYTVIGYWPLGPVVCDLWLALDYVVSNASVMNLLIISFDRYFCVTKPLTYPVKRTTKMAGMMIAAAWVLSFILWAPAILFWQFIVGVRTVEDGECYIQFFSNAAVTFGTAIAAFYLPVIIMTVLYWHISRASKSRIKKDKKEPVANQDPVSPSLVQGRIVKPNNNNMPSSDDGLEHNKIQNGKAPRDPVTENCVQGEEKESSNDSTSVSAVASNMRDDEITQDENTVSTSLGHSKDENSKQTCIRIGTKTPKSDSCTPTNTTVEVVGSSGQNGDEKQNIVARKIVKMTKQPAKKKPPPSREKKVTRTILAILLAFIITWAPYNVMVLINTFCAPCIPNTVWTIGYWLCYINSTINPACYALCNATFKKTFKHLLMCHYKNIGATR
# DRD3: D(3) dopamine receptor (DRD3, Homo sapiens, UniProt P35462)
# Chain of UniProt P35462 (whole entry, looked up): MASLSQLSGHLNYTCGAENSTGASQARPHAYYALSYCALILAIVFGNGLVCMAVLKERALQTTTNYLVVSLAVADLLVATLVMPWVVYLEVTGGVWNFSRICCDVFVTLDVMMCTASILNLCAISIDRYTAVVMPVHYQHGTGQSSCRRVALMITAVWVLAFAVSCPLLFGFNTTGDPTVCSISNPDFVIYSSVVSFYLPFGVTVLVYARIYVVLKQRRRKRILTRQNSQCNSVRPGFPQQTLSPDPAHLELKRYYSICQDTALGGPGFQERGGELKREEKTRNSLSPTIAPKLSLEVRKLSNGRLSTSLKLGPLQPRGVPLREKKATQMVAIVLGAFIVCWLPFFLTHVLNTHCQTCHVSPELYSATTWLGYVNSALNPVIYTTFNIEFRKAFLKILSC
# KDM1A: Lysine-specific histone demethylase 1A (KDM1A, Homo sapiens, UniProt O60341)
# SLC18A3: Vesicular acetylcholine transporter (SLC18A3, Homo sapiens, UniProt Q16572)
# Chain of UniProt Q16572 (whole entry, looked up): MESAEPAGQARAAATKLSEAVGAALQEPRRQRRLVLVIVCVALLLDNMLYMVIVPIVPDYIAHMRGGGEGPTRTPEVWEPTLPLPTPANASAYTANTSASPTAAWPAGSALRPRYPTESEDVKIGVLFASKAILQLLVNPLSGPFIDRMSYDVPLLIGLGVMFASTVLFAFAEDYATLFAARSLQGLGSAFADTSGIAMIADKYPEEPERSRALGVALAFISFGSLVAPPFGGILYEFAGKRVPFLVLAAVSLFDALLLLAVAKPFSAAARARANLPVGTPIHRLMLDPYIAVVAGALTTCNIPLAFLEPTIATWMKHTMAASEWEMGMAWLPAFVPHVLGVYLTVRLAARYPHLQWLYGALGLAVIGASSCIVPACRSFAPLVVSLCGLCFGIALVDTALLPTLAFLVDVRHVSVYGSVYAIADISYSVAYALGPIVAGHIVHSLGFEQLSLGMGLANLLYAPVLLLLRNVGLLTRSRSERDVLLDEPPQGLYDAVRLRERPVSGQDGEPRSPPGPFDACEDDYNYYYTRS
# Uncharacterized protein: Uncharacterized protein (Trypanosoma cruzi, UniProt Q4DRC3)
# CASP9: Caspase-9 (CASP9, Homo sapiens, UniProt P55211)
# Chain of UniProt P55211 (whole entry, looked up): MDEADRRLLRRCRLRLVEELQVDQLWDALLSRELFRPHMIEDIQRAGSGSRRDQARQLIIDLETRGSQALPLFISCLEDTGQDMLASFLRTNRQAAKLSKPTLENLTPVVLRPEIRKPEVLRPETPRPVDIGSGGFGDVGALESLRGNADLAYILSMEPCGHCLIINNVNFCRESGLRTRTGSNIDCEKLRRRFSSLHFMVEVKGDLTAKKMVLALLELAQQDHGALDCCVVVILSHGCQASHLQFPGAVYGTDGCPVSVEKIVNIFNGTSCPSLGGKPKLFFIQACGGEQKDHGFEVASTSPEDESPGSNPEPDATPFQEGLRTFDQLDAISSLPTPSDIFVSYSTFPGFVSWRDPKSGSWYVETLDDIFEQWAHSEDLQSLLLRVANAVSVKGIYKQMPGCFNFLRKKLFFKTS
# Chain of UniProt P34913 (whole entry, looked up): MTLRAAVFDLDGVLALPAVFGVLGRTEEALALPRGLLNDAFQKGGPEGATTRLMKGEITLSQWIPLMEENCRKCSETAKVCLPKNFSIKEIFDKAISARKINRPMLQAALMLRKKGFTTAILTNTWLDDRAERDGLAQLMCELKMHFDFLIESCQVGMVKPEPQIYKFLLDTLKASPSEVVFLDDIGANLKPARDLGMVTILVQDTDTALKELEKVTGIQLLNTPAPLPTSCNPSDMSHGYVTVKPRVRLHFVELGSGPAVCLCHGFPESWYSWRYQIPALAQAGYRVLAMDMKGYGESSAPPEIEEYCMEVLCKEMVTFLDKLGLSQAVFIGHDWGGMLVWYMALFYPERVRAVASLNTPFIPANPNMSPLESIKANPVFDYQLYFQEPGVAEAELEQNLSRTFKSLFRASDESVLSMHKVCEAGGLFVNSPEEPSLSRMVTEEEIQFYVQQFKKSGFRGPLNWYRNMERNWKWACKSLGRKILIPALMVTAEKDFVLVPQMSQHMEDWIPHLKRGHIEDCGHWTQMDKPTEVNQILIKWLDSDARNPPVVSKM
# Chain of UniProt P39748 (whole entry, unmodified, looked up): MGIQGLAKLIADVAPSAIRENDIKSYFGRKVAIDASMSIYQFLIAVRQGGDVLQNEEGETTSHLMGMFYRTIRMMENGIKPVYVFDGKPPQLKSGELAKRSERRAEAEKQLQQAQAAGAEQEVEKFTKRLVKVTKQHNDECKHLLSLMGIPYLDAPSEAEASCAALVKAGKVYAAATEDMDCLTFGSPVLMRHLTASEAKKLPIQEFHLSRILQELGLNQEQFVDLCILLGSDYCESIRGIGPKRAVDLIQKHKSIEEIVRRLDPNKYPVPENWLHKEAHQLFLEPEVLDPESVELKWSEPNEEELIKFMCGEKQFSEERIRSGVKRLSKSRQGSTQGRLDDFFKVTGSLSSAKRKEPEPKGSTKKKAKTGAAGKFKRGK
# Chain of UniProt P08037 (whole entry, looked up): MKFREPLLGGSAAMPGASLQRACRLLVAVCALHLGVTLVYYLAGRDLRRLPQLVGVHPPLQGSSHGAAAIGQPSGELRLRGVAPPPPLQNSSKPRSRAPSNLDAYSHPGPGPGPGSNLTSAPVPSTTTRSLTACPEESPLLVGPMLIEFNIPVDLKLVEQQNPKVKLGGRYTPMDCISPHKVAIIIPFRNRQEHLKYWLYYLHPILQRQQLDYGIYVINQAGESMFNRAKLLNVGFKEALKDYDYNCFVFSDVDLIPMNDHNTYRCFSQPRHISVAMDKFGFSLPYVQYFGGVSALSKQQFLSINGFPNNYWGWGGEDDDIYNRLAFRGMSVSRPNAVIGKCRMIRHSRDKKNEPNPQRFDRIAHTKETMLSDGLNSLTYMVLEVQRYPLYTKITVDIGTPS
# Chain of UniProt O00519 (whole entry, looked up): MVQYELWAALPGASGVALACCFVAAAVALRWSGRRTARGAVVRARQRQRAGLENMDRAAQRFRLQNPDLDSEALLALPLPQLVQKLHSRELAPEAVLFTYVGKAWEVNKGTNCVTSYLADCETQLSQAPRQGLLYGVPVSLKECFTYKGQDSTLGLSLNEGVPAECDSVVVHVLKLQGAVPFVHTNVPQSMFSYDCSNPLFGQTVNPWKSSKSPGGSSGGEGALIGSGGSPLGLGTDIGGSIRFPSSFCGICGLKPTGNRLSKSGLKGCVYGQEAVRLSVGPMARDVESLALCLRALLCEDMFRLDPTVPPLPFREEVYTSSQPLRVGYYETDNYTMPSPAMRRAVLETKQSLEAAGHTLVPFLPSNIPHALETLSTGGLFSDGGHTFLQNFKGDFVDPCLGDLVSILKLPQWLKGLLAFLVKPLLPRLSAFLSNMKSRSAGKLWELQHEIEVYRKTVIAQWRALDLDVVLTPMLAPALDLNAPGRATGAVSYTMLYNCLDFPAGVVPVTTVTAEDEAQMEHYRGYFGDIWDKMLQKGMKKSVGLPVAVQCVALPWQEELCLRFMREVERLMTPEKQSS
# Chain of UniProt P00915 (whole entry, looked up): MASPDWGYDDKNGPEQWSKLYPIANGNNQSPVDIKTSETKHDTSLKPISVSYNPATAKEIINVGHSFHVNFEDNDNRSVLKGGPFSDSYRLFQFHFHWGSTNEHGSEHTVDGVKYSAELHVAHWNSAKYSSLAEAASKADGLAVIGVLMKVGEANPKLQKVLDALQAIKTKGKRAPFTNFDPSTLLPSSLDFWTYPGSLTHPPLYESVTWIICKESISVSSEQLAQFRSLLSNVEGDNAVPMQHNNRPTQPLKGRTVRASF
# Chain of UniProt P08908 (whole entry, looked up): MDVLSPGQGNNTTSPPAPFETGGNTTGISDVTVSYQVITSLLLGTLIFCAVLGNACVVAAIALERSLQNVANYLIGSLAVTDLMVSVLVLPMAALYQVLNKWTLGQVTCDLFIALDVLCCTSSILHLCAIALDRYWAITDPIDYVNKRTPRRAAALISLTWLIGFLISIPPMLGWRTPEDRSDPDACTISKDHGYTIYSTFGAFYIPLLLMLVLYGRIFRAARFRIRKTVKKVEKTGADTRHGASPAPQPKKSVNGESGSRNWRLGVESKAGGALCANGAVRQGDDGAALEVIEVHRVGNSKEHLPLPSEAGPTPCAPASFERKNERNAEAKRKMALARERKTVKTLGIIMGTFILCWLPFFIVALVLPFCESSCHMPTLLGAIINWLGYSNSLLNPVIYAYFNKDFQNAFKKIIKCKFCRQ
SMILES,target,assay,test system,conditions,Ki [µM]
Cc1cc(CN2CCOCC2)ccc1OCCCN1CCN(c2cccc3sccc23)CC1,HTR6,"ligand displacement, radioligand",,,0.296
O=C(Nc1ccc(OC(F)(F)F)cc1)N1CCC(Cc2cccc(Oc3ccc(C(F)(F)F)cn3)c2)CC1,"FAAH (Homo sapiens, UniProt O00519)","enzyme activity, inhibitor",,,0.077
COc1cccc(/C=C/C(=O)c2ccccc2)c1,cathepsin L,"enzyme activity, competitive inhibitor",goat liver enzyme,"pH 6.0, together with: Z-Phe-Arg-4-methoxy-β-naphthylamide",0.0035 ± 8e-05
OC[C@H](OCc1ccccc1)[C@H](O)C[S@@+]1C[C@@H](O)[C@H](O)[C@H]1CO,"GAA (Homo sapiens, UniProt P10253)","enzyme activity, inhibitor, absorbance",,pH 5.2,0.022
NCc1cc(C(=O)NCCN2CCC(OC(=O)C(c3ccccc3)c3ccccc3)CC2)cc(C(=O)NCCN2CCN(CCCCC3CCN(CC(=O)N4c5ccccc5NC(=O)c5ccccc54)CC3)CC2)c1,CHRM2,"ligand displacement, radioligand",,,0.000692
CCOC(=O)c1nn(-c2ccccc2)cc1CN(C)[C@@H]1CCSC1,DRD3,"ligand displacement, radioligand",,cell membranes,> 10
COc1ccccc1/C=N/NC(=O)CSc1nc2ccccc2c(=O)n1CCc1ccc(S(N)(=O)=O)cc1,"CA1 (Homo sapiens, UniProt P00915)","enzyme activity, inhibitor, stopped-flow",,,1.66
COc1ccc(CCCNCCCNCCCNCCCCNCCCN)cc1,KDM1A,"enzyme activity, inhibitor, absorbance",,,14
COc1cc(-c2nc3ccc(C(=O)NCCCN(C)C)cc3n2C2CCC2)cc(OC)c1OC,"LCK (Homo sapiens, UniProt P06239)","enzyme activity, inhibitor, FRET",,,0.071
Cc1cc(OCCCN2CCN(c3cccc4sccc34)CC2)ccc1CN1CCCCC1,HTR6,"ligand displacement, radioligand",,,0.404
CCC[C@@H]1[C@H](O)[C@@H](O)[C@H](O)[C@@H](CO)N1C(=S)NCc1ccc(OC)cc1,beta-glucosidase (almond),competitive inhibitor,,together with: p-nitrophenyl glucopyranoside,> 2000
CCCCOc1ccc(C(=O)OCC[N+]2(C)CC=CCC2)cc1 (centres unmarked),CHRM2,"ligand displacement, radioligand",,cell membranes,1.95
Nc1ncnc2c(CN3C[C@H](CSC4CCCCC4)[C@@H](O)C3)c[nH]c12,"MTA/SAH nucleosidase (Campylobacter jejuni subsp. jejuni, UniProt Z9IB28FKP7)",inhibitor,,"pH 7.4, 25 °C, together with: MTA 1 mM",0.0056 ± 0.0006
OC[C@@H](CNCc1cn2cc(Cl)ccc2n1)CC1CCCC1,DRD3,"ligand displacement, radioligand",,cell membranes,5.43
CC(=O)N[C@@H](Cc1ccccc1)C(=O)N[C@@H](CCC(N)=O)C(=O)N[C@@H](CCCNC(=N)N)C(=O)N[C@@H](CCCCN)C(=O)N[C@H](C(=O)N[C@@H](CC(C)C)C(=O)N[C@@H](CCC(N)=O)C(=O)N[C@@H](CCCNC(=N)N)C(=O)N[C@@H](CCCNC(=N)N)C(=O)N[C@@H](CC(N)=O)C(=O)N[C@@H](CC(C)C)C(=O)N[C@@H](CCCCN)C(=O)NCC(=O)N[C@@H](CC(C)C)C(=O)N[C@@H](CC(N)=O)C(=O)N[C@@H](CC(C)C)C(=O)N[C@@H](CC(N)=O)C(=O)N[C@@H](CC(C)C)C(=O)NCCCCCC(=O)NCCCCCC(=O)NCCCCCC(=O)N[C@H](C(=O)NCC(=O)N1CCC[C@H]1C(=O)N[C@@H](CC(C)C)C(=O)N[C@@H](CO)C(=O)N1CCC[C@H]1C(=O)NCC(=O)N1CCC[C@H]1C(=O)N[C@@H](Cc1ccccc1)C(N)=O)[C@@H](C)O)[C@@H](C)O,"Mapk1 (Rattus norvegicus, UniProt P63086)",kinase activity,,"pH 7.4, 27 °C, together with: peptide substrate",2.4 ± 1
O=C(c1ccc(F)cc1)C1CCN(C2Cc3c(O)cccc3CC2O)CC1 (racemic),SLC18A3,"ligand displacement, radioligand",,,0.00464
O=c1[nH]c(=O)c2ncn([C@@H]3O[C@H](COP(=O)(O)O)[C@@H](O)[C@H]3O)c2[nH]1,Uncharacterized protein,"enzyme activity, inhibitor",,"product inhibition, noncompetitive Kis, together with: xanthine 120 µM, PRPP variable",33 ± 5
C=C(C)[C@@H]1CC=C(C)CC1,"chemosensory protein 5 (Mythimna separata, UniProt A0A5H2NAD7)","binding, 1-NPN displacement",,pH 5.0,5.71
CC1=CC(C)=[N+]2C1=C(CCCCCN1CCC(O)(c3ccc(Cl)cc3)CC1)c1c(C)cc(C)n1[B-]2(F)F,"Sodium- and chloride-dependent glycine transporter 2 (Homo sapiens, UniProt Q9Y345)","cell-free assay, mass spectrometry",,,0.661
O=C(NCc1ccc(OP(=O)(O)O)c(OP(=O)(O)O)c1)OCC1c2ccccc2-c2ccccc21,"Signal transducer and activator of transcription 5B, SH2 (STAT5B, Homo sapiens, UniProt P51692)","ligand displacement, FP",,,0.21
NC(CC(=O)c1cccc(O)c1)C(=O)O (centres unmarked),"Kynureninase (Homo sapiens, UniProt Q16719)","enzyme activity, inhibitor",,,0.005
O=c1c2sccc2n(CC2COc3ccccc3O2)c(=O)n1O (centres unmarked),"Flap endonuclease 1 (Homo sapiens, UniProt P39748)",inhibitor,,together with: double-flap substrate DF1,0.048 ± 0.005
"O=C(c1ccc(SCCF)cc1)C1CCN(C2Cc3ccccc3CC2O)CC1 (single isomer, unassigned; (-))",SLC18A3,"ligand displacement, radioligand",,,0.0022
CCC(=O)NCCNC(=O)CCc1cn(CCCCC2CCN(CC(=O)N3c4ccccc4NC(=O)c4ccccc43)CC2)cn1,CHRM2,"ligand displacement, radioligand",,,0.000776
O=Cc1ccc(-c2cn([C@@H]3O[C@H](COP(=O)(O)OP(=O)(O)O[C@H]4O[C@H](CO)[C@H](O)[C@H](O)[C@H]4O)[C@@H](O)[C@H]3O)c(=O)[nH]c2=O)s1,"B4GALT1 (Bos taurus, UniProt P08037)","enzyme activity, inhibitor",,,38.8
O=c1[nH]c(O)nc2c([C@@H]3N[C@H](COP(=O)(O)O)[C@@H](O)[C@H]3O)c[nH]c12,Uncharacterized protein,"IMP formation, uncompetitive inhibitor",,"pH 8.3, 37 °C, together with: hypoxanthine 120 µM, PRPP 1 mM",0.2 ± 0.02
C#CC(C)NC(=O)C(CC(C)(C)F)NC(c1ccc(-c2ccc(S(C)(=O)=O)cc2)cc1)C(F)(F)F (centres unmarked),"Cathepsin K (CTSK, Homo sapiens, UniProt P43235)","enzyme activity, inhibitor, fluorescence",,,3.3
N=C(N)NCC(=O)NCC1(Nc2ccccc2)CCCN(Cc2ccccc2)C1 (centres unmarked),"NPFFR1 (Homo sapiens, UniProt Q9GZQ6)",cell-free assay,,,0.904
O=C1Nc2ccccc2N(C(=O)CN2CCC(CCCCNCCCCC3CCN(CCCN4C(=O)CCc5ccccc54)CC3)CC2)c2ccccc21,CHRM2,"ligand displacement, radioligand",,,0.000575
"O=C(c1ccc(NCCF)cc1)C1CCN(C2Cc3ccccc3CC2O)CC1 (single isomer, unassigned; (-))",SLC18A3,"ligand displacement, radioligand",,,0.00031
Cc1noc(-c2ccc(-n3cnc(C(=O)NCc4cccs4)c3)nc2)n1,"Alpha-synuclein, fibril (SNCA, Homo sapiens, UniProt P37840)","ligand displacement, radioligand",,,> 1
COc1cc2cc(C(=O)NCCc3ccc(O)cc3)c(C(=O)NCCc3ccc(O)cc3)cc2cc1O,"EPHX2 (Homo sapiens, UniProt P34913)","enzyme activity, inhibitor",,,9
CC[C@H](C)[C@H](NC(C)=O)C(=O)N[C@H](C(=O)N[C@H](C(=O)N[C@@H](CCCCNC(C)=O)C(=O)N[C@H](C=O)CC(=O)O)C(C)C)[C@@H](C)O,CASP9,"enzyme activity, inhibitor, fluorescence",,pH 7,4.68
C[C@@H]1NC(=O)[C@H](C)NC(=O)[C@H](CCC(N)=O)NC(=O)C[C@@H](CCc2ccccc2)NC(=O)[C@@H]2CCCCN2C(=O)C(=O)C(C)(C)COC(=O)[C@@H](C)NC(=O)[C@H](CC(=O)O)NC1=O,"FKBP1A (Homo sapiens, UniProt P62942)","binding, fluorescence polarization competition",,crude sample,0.16 ± 0.06
COc1cccc(/C=C/C(=N/NC(N)=O)c2ccccc2)c1,cathepsin L,"enzyme activity, competitive inhibitor",goat liver enzyme,"pH 6.0, together with: Z-Phe-Arg-4-methoxy-β-naphthylamide",0.00471 ± 2e-05
CN1CCC=C(c2nsnc2OCCCCCNC(=O)CCCNC(=O)c2cc(CN)cc(C(=O)NCCN3CCN(CCCCC4CCN(CC(=O)N5c6ccccc6NC(=O)c6ccccc65)CC4)CC3)c2)C1,CHRM2,"ligand displacement, radioligand",,,0.000224
COc1ccc(C2c3[nH]c4ccccc4c3CCN2Cc2cccc(F)c2)cc1 (centres unmarked),"HTR1A (Homo sapiens, UniProt P08908)","ligand displacement, radioligand",,,8.19
CCCCN1[C@H](CCC)[C@H](O)[C@@H](O)[C@H](O)[C@H]1CO,beta-glucosidase (almond),competitive inhibitor,,together with: p-nitrophenyl glucopyranoside,> 2000
CC(=O)N[C@@H](CC(C)C)C(=O)N[C@@H](CC(=O)O)C(=O)N[C@H](C(=O)N1CCC[C@H]1C(=O)N[C@H](C=O)CC(=O)O)C(C)C,CASP9,"enzyme activity, inhibitor, fluorescence",,pH 7,2.19
CCCCCCCC[C@H]1N[C@H](CO)[C@@H](O)[C@H](O)[C@H]1O,beta-glucosidase (almond),competitive inhibitor,,together with: p-nitrophenyl glucopyranoside,28 ± 2
NCc1cc(C(=O)NCCN2CCN(CCCCC3CCN(CC(=O)N4c5ccccc5NC(=O)c5ccccc54)CC3)CC2)cc(C(=O)NCCN2CCN(CCOC(=O)C3c4ccccc4Oc4ccccc43)CC2)c1,CHRM2,"ligand displacement, radioligand",,,0.000676
O=C(/C=C/c1ccccc1)c1ccccc1,cathepsin L,"enzyme activity, competitive inhibitor",goat liver enzyme,"pH 6.0, together with: Z-Phe-Arg-4-methoxy-β-naphthylamide",0.01515 ± 0.0001
O=C(OC1CCN(CCOCCOCCN2CCC(OC(=O)C(c3ccccc3)c3ccccc3)CC2)CC1)C(c1ccccc1)c1ccccc1,CHRM2,"ligand displacement, radioligand",,,0.891
COc1ccc(CCCN[C@@H]2CCC[C@H]2CN[C@@H]2CCC[C@H]2CNCCCCN[C@@H]2CCC[C@H]2CN)cc1,KDM1A,"enzyme activity, inhibitor, absorbance",,,6.3

# A few entries again:
SMILES,target,assay,test system,conditions,Ki [µM]
OC[C@@H](CNCc1cn2cc(Cl)ccc2n1)CC1CCCC1,DRD3,"ligand displacement, radioligand",,cell membranes,5.43
COc1cc2cc(C(=O)NCCc3ccc(O)cc3)c(C(=O)NCCc3ccc(O)cc3)cc2cc1O,"EPHX2 (Homo sapiens, UniProt P34913)","enzyme activity, inhibitor",,,9
O=C(NCc1ccc(OP(=O)(O)O)c(OP(=O)(O)O)c1)OCC1c2ccccc2-c2ccccc21,"Signal transducer and activator of transcription 5B, SH2 (STAT5B, Homo sapiens, UniProt P51692)","ligand displacement, FP",,,0.21
